# Assay results of several laboratories.
# Compare with care: the assays were run in different laboratories. ± marks the error that the study gave.
# KDR: Vascular endothelial growth factor receptor 2 (KDR, Homo sapiens, UniProt P35968)
# CTSL: Procathepsin L (CTSL, Homo sapiens, UniProt P07711)
# TYK2: Non-receptor tyrosine-protein kinase TYK2 (TYK2, Homo sapiens, UniProt P29597)
# Type II NADH dehydrogenase: Type II NADH dehydrogenase (Plasmodium falciparum, UniProt Q8I302)
# PDGFRB: Platelet-derived growth factor receptor beta (PDGFRB, Homo sapiens, UniProt P09619)
SMILES,target,assay,system,conditions,IC50
COc1cc2nccc(Oc3ccc(NC(=S)Nc4ccc(F)cc4)c(Cl)c3)c2cc1C(N)=O,KDR,,,,105 nM
C=CC(=O)N1CCC[C@@H](n2nc(-c3ccccc3)c3c(N)ncnc32)C1,"EGFR (Homo sapiens, UniProt P00533)","enzyme activity, inhibitor",,with preincubation,136 nM
CCC(c1nnnn1Cc1cccs1)N1CCC(c2nc3cccc(F)c3s2)CC1 (centres unmarked),"Deoxyribonuclease-1 (DNASE1, Bos taurus, UniProt P00639)","enzyme activity, inhibitor, fluorescence DNA degradation",,"pH 7.5, added: FITC-labelled DNA substrate",32000 nM
O=C(NCc1cn([C@H]2C[C@H](O)[C@@H](COP(=O)(O)OCC3CC(O)OC3O)O2)c(=O)[nH]c1=O)c1cc2cccc(O)c2cc1O (mixture of isomers),"DNA polymerase beta (POLB, Homo sapiens, UniProt P06746)","enzyme activity, inhibitor",,,18700 nM
O=c1[nH]sc2ccccc12,"HDAC5 (Homo sapiens, UniProt Q9UQL6)","enzyme activity, inhibitor",,,> 10000 nM
CC(C)Oc1cc(NC(=O)[C@@H](Cc2c[nH]c3ccccc23)NC(=O)c2ccc(N)c(OCc3ccccc3)c2)ccc1C(=O)NCC(=O)O,"MCL1 (Homo sapiens, UniProt Q07820)",fluorescence anisotropy competition,,"pH 7.50, added: FITC-NOXA B peptide",> 100000 nM
CC(C)CCN(c1nc(C#N)nc(NC2COC2)n1)C(C)c1ccc(F)cc1 (centres unmarked),CTSL,"enzyme activity, inhibitor, fluorescence",,,23 nM
Cc1ccc(NC(=O)CNS(=O)(=O)c2nc(-c3ccc(OC(F)(F)F)cc3)cc(C(F)(F)F)n2)cc1,"WRN (Homo sapiens, UniProt Q14191)","DNA unwinding, inhibitor, TAMRA dequenching",,"10 nM full-length enzyme, 5 µM trap DNA, added: 500 nM DNA substrate, 60 µM ATP",36 nM
N#C/C(=C\c1cccc(-c2cccc3[nH]ncc23)c1)C(N)=O,TYK2,"kinase activity, inhibitor",,"up to highest tested, added: ATP at Km",> 10000 nM
CC(=O)NC(c1ccccc1)(c1ccccc1)c1ccccc1Cl,"KCNN4 (Homo sapiens, UniProt O15554)","ion current, inhibitor, patch clamp",,,1200 nM
COc1cc2nccc(Oc3ccc(NC(=S)NC4CC4)c(Cl)c3)c2cc1C(=O)N1CCCCC1,KDR,,,,1670 nM
NC1CCC(Nc2nccc(-c3cccnc3Oc3ccc(NS(=O)(=O)c4ccccc4Cl)c4ccccc34)n2)CC1 (centres unmarked),"Serine/threonine-protein kinase/endoribonuclease IRE2, RNase domain (ERN2, Homo sapiens, UniProt Q76MJ5)","RNase activity, inhibitor",,added: XBP1 mini-substrate,15 ± 2 nM
O=C1C2=C(Nc3ccccc3SC2C2CCCCC2)c2ccccc21 (racemic),Type II NADH dehydrogenase,"enzyme activity, inhibitor, fluorescence NAD+ quantitation",recombinant enzyme,,> 20000 nM
CC1=C(C2=C(C)C(=O)c3c(cc(O)c(O)c3Cc3ccccc3)C2=O)C(=O)c2cc(O)c(O)c(Cc3ccccc3)c2C1=O (racemic),"Bcl-2-related protein A1 (Homo sapiens, UniProt Q16548)","ligand displacement, FP",,,144 nM
CCOC(=O)/C=C/CN(CCCCN1c2ccccc2CCc2ccc(Cl)cc21)C(C)C,"E3 ubiquitin-protein ligase NEDD4, HECT domain (Homo sapiens, UniProt P46934)","ubiquitination, inhibitor, TR-FRET",,1 h preincubation,1830 nM
CCNC(=O)N1CCC(Oc2nc3c(c(=O)n(C)c(=O)n3C)n2Cc2cccc(C)c2)CC1,"ALDH1A1 (Homo sapiens, UniProt P00352)",,,,441 ± 212 nM
O=C(O)CCC(=O)NNC(=O)c1ccccn1,"Egl nine homolog 1 (EGLN1, Homo sapiens, UniProt Q9GZT9)","inhibitor, AlphaScreen",,"bimodal curve, rough estimate, added: 2 µM 2-oxoglutarate",> 300000 nM
COc1cc2nccc(Oc3ccc(NC(=S)NC4CC4)c(Cl)c3)c2cc1C#N,KDR,,,,172 nM
COc1ccc2c(c1)C(=C1Nc3ccccc3C1=NOCC(O)CO)C(=O)N2 (centres unmarked),TYK2,"enzyme activity, inhibitor, radiometric",,,0.7 nM
COC(=O)N1c2ccc3cn(CCc4ccccc4)nc3c2CC[C@@H]1C,"CREB-binding protein, bromodomain (CREBBP, Homo sapiens, UniProt Q92793)","binding, inhibitor",,,~2000 nM
N=C(N)NCCC[C@@H]1NC(=O)[C@H](Cc2c[nH]c3ccccc23)NC(=O)[C@H](CCCNC(=N)N)NC(=O)[C@H](Cc2c[nH]c3ccccc23)NC(=O)[C@H](CCCNC(=N)N)NC(=O)[C@H](Cc2c[nH]c3ccccc23)NC(=O)[C@H](CCCNC(=N)N)NC(=O)[C@H](Cc2c[nH]c3ccccc23)NC(=O)[C@H](CCCNC(=N)N)NC(=O)[C@H](Cc2c[nH]c3ccccc23)NC(=O)[C@H](CCCNC(=N)N)NC(=O)[C@H](Cc2c[nH]c3ccccc23)NC(=O)[C@H](CCCNC(=N)N)NC(=O)[C@H](Cc2c[nH]c3ccccc23)NC1=O,"Cyclin-dependent kinase 2, with cyclin A1 (CDK2, Homo sapiens, UniProt P24941)","enzyme activity, inhibitor",,,1170 nM
Cc1cccc(S[C@@H]2O[C@H](CO)[C@@H](O)[C@H](O)[C@H]2O)c1,"SLC5A1 (Homo sapiens, UniProt P13866)","transporter uptake, inhibitor, radiometric",,,11000 nM
COc1ccc2c(c1)C(CC(=O)NC(C(=O)NC(CCc1ccccc1)C(=O)NCc1ccc(C)cc1)C(C)O)CC2=O (centres unmarked),"PSMB6/PSMB7 (Homo sapiens, UniProt P28072+Q99436)",inhibitor,,,> 100000 nM
CCN(CC)CCOc1cc2nccc(Oc3ccc(NC(=S)NC4CC4)c(Cl)c3)c2cc1C(N)=O,PDGFRB,,,,389 nM
CC(C)CCN(CCc1ccccc1)c1nc(C#N)nc(N2CCOCC2)n1,CTSL,"enzyme activity, inhibitor, fluorescence",,,86 nM
CNc1nc(N)c(C(=O)c2ccc(F)cc2)s1,"GSK3 (Trypanosoma brucei, UniProt Q388M1)","enzyme activity, inhibitor, radiometric",,,25000 nM
COc1cc2nccc(Oc3ccc4sc(NCC(C)C)nc4c3)c2cc1C(N)=O,PDGFRB,,,,> 10000 nM
O=C(NCc1ccccc1)c1cc(S(=O)(=O)NCc2ccccc2)ccc1Cl,"Ectonucleoside triphosphate diphosphohydrolase 2 (Homo sapiens, UniProt Q9Y5L3)","enzyme activity, inhibitor, absorbance",,,2240 nM
Cc1c(-c2ccc(Cc3ccc(OC(F)(F)F)cc3)cc2)[nH]c2cccc(F)c2c1=O,Type II NADH dehydrogenase,"enzyme activity, inhibitor",,"added: NADH 200 µM, ubiquinone-1 100 µM",3.6 nM
COCC1CN(C2CCN(c3cc(OC)c(Nc4ncc(Br)c(Nc5ccc6c(c5P(C)(C)=O)OCCO6)n4)cc3C)CC2)C1,"EGFR (Homo sapiens, UniProt P00533, C797S/del746-750/T790M)","EGF-induced signalling, cellular TR-FRET",,"30 min, added: EGF 50 ng/mL",24 nM
CC(C)[C@H](NC(=O)[C@H](C)NC(=O)[C@H](Cc1c[nH]c2ccccc12)NC(=O)[C@H](Cc1c[nH]cn1)NC(=O)[C@H](N)Cc1ccc(O)cc1)C(=O)N[C@H](C)C(=O)N[C@@H](Cc1c[nH]cn1)C(=O)N1CCC[C@@H]1CN[C@@H](Cc1ccccc1)C(N)=O,"NMBR (Homo sapiens, UniProt P28336)","inositol phosphate generation, antagonist",NCI-H1299,added: neuromedin B,> 10000 nM
CCn1c(-c2cc(NC(=O)c3cnccn3)n[nH]2)cc2ccccc21,"CSNK2A2 (Homo sapiens, UniProt P19784)","enzyme activity, inhibitor, ADP detection",,,15000 nM
O=C(NCCc1ccc(OS(=O)(=O)O)c(Br)c1)/C(Cc1cc(Br)c(O)c(Br)c1)=N/O,"Ryanodine receptor 1, with FKBP12 (RYR1, Oryctolagus cuniculus, UniProt P11716)","binding, antagonist",rabbit skeletal muscle SR vesicles,"3.5 h, pH 7.4, 37 °C, added: [3H]ryanodine 1 nM",29000 nM
CC1=CC(=O)CC(C)(C)C1C=CC(C)OC1OC(CO)C(O)C(O)C1O (centres unmarked),"MAL12 (Saccharomyces cerevisiae S288c, UniProt P53341)","enzyme activity, inhibitor, absorbance",,,> 100000 nM
COC(=O)C1=CNC=C(C(=O)OC)C1c1ccc(F)c(C(F)(F)F)c1,"KCNN4 (Homo sapiens, UniProt O15554, A322V)",inside-out patch clamp,,"gain-of-function mutant, added: 1 µM free Ca2+",< 20 nM
